Assay results pooled from the literature.
Each numbered part is a random draw from the data of one study; scales do not carry over between parts.
Sequence of UniProt P49336 (whole entry, looked up): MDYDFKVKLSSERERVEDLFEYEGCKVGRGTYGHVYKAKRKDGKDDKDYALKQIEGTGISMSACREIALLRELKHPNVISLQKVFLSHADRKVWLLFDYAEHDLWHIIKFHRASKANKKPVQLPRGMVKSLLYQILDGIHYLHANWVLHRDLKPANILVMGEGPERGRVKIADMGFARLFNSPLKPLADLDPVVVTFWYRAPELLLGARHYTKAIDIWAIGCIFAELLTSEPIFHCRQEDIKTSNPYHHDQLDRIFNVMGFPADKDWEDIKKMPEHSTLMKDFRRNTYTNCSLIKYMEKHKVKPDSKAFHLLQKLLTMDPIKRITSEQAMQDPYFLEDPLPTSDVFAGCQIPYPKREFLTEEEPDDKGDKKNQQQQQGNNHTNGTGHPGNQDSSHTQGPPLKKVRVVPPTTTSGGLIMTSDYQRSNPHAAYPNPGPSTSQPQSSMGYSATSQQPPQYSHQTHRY
Sequence of UniProt O43283 (whole entry, looked up): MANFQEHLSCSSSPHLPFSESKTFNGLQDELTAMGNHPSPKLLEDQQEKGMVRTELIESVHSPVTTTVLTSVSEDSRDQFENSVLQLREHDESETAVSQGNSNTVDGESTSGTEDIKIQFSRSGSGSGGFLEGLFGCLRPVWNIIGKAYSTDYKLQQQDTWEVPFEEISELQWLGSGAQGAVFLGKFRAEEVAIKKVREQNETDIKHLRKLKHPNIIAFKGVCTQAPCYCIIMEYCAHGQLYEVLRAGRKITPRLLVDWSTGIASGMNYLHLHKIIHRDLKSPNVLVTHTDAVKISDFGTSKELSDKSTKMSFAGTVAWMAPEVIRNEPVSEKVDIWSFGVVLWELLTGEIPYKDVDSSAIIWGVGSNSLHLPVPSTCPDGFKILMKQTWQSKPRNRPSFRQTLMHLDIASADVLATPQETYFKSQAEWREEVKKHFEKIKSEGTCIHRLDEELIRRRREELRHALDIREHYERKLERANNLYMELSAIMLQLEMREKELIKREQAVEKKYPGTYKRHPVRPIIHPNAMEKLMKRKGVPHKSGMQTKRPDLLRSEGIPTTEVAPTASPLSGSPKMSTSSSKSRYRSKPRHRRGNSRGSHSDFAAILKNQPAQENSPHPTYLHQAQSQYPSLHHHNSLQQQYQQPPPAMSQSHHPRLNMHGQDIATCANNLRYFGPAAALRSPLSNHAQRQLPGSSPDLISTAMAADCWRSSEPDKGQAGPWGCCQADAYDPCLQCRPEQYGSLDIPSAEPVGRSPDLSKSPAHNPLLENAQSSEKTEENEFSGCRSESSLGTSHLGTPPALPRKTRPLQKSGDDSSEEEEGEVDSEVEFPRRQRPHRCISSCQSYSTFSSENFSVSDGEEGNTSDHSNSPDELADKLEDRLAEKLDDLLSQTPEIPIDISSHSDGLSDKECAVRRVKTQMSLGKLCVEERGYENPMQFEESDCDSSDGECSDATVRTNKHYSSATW
Sequence of UniProt Q15418 (whole entry, looked up): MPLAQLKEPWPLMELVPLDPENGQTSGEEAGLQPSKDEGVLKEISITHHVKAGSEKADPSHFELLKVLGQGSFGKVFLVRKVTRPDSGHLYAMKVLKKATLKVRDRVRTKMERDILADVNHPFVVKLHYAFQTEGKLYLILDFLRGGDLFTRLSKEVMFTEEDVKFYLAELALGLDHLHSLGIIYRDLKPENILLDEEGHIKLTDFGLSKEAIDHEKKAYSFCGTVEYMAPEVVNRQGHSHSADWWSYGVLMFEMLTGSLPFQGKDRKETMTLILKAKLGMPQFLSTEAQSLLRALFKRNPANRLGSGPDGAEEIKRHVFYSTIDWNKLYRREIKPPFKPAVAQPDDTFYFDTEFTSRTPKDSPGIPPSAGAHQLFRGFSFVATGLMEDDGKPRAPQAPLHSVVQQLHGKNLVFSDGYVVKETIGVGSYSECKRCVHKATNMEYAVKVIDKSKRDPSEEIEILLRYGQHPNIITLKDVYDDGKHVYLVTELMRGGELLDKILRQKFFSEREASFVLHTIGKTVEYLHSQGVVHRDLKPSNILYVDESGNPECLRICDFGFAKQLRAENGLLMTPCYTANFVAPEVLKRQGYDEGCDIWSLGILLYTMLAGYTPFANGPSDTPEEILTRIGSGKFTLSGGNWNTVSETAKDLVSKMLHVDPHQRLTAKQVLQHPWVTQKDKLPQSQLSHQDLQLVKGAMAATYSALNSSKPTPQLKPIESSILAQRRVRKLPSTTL
Sequence of UniProt P08922 (whole entry, looked up): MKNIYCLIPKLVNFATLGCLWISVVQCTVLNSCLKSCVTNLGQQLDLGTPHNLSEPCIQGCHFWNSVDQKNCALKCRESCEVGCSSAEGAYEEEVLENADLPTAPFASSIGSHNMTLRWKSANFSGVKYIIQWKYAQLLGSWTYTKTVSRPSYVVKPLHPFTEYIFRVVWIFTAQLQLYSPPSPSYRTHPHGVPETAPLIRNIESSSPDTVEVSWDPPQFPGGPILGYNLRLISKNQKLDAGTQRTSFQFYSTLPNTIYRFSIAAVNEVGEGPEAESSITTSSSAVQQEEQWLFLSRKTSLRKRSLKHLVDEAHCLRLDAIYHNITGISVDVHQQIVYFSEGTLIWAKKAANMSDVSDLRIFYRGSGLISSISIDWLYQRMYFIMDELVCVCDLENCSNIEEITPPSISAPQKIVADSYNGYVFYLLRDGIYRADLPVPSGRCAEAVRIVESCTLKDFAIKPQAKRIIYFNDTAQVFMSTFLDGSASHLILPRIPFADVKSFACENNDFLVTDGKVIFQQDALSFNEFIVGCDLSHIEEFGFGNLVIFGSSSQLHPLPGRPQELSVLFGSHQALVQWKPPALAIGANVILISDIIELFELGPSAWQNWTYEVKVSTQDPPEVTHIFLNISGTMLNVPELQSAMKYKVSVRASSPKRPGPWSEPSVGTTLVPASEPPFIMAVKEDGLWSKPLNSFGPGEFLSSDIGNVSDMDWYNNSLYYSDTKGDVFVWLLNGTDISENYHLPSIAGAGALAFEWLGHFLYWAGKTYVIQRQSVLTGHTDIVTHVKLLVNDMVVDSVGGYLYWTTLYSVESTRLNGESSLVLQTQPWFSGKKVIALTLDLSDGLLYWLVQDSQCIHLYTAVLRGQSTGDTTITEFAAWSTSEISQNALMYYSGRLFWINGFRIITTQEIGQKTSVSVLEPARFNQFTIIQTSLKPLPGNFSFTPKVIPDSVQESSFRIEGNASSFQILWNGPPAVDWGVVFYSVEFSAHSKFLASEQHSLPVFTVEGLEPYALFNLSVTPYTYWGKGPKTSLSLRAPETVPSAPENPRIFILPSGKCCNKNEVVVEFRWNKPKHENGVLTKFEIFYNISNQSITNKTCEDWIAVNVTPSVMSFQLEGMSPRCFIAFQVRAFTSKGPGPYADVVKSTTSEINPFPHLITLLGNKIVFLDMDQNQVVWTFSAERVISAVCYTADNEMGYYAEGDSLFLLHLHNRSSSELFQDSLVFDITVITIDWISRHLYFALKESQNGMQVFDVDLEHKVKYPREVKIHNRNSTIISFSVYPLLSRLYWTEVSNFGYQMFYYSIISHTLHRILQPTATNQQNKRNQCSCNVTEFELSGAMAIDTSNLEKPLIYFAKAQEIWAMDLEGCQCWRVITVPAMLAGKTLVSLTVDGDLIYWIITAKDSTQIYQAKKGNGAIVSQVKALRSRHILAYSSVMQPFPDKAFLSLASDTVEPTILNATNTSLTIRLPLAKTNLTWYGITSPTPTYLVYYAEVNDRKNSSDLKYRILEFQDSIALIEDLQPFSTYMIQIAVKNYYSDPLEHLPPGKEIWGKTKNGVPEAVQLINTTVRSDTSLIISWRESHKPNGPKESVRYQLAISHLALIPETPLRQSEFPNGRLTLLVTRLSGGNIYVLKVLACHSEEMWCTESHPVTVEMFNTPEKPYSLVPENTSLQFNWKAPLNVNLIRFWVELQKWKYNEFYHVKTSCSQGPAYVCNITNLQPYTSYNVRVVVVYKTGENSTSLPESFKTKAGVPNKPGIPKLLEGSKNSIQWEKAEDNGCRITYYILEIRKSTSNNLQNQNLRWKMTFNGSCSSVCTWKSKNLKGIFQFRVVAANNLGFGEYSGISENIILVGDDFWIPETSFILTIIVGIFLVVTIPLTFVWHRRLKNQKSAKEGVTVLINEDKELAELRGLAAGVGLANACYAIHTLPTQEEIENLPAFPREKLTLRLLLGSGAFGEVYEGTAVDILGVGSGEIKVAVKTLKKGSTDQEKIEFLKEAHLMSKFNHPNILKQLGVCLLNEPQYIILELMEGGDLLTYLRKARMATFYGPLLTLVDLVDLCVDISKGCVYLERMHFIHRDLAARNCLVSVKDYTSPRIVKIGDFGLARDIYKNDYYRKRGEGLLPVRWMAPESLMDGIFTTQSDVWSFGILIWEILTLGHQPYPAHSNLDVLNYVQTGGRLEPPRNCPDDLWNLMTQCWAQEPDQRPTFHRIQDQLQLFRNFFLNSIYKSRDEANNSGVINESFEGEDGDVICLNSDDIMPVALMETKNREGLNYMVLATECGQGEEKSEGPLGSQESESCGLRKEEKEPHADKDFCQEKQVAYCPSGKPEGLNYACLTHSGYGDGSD

Study 1
Target: RNA binding protein fox-1 homolog 2, RRM domain, GST-SBP tag (RBFOX2, Homo sapiens, UniProt O43251-10, residues 100-194)
Method: RNA Bind-n-Seq
Form: RNA
Sample: in vitro
Tested at: 365 nM
Setting: natural RNA segment, single round, ends assumed
Reference: no-protein control
Direction: higher = stronger binding
Measurement: RBNS enrichment (R)
All sequences stand within: GGGAGUUCUACAGUCCGACGAUC … UGGAAUUCUCGGGUGCCAA
Target sequence (chain): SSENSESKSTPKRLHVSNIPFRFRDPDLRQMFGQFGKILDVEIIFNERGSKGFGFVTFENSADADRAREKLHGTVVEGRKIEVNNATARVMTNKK
Strand = CCUGGCUGUGCCUACCACUCCUGCAUACUGUGCUUAUGUGCGUGCUGCGCUUUGAUGGGGAGGAGGGCAGGUCCCUGUGCAGCCAGGGUUCUUGCUCCUUCCAUGGCAGG; result = 1.06
Strand = AAACAUUACUCUCUCUUGGGAGUCUGACAUCCUCCACUGUCCUCCAUGGGCACCCGUGCUCACAUGCACAGACGCAAACACAGUUGUCAUACAUGCCACCACACAAAGAC; result = 0.326
Strand = GCUGCUUCACUUAGAUGCAGUGAGACACAUAGUUGGUGUUCCGAUUUUCACAUCCUUCCAUGUAUUUAUCUUGAAGAGAUAAGCACAGAAGAGAAGGUGCUCACUAACAG; result = 0.216
Strand = GCCUUAUGUGUGUCGUUAACAUUUAUAUUUUCAUUCAAAAUAUGUAUUCAGUGUUUAUUUCCUUAAACAGACUUUGUUAAUUUAGGAAAUAUCUCCAAGUGGAAACGUGC; result = 0.307
Strand = AUUCUGUGUGUUACAGAGAAGUACUGAAAAGUUAAGGACACUUGGGGGCUACUUUUUUCCCUCUAAACUAAAAAAGACAUUGGCUGAAUUAUAACUAGUUAGUUAUCACC; result = 0.421
Strand = CGCUGCCCUGUGACUCCGACCUGUAGACAGGGUUCACCUGAGCUCUGCCUGGAGUCUGAGGGUGACUUGAACUUCUGCCAGUACAUCUGCAACUAGAACCCUGGUCGCCU; result = 0.417
Strand = AACAGAACGUGGUAGUGGAGUAGCUGUUGCCCUUCUCCGGCUGUGUGUACAGUAUGUGUGGAAUAAAAAAGGGAAACUGUUUUCACAAGCUGUUGUUUGUUUCAUAAUUG; result = 0.517
Strand = AAUAACUUAAUGUUUUGGACAUAUUUUGUCUACUUUUGAGAAUUAUUUUUAAUAUGUAAAUUCUCUCAAAAGGGUCAGGCACCUAGUUAUUAUUUUUUAAUGAUUAUGUG; result = 0.648

Study 2
Target: Probable WRKY transcription factor 11, DNA-binding domain (WRKY11, Arabidopsis thaliana, UniProt Q9SV15, residues 228-325)
Method: DNA-protein interaction ELISA
Form: double-stranded DNA, one strand shown
Sample: in vitro, bacterial lysate
Tested at: not given
Setting: whole dsDNA probe, crude lysate protein
Reference: highest signal in screen
Direction: higher = stronger binding
Measurement: relative absorbance
Residues (chain): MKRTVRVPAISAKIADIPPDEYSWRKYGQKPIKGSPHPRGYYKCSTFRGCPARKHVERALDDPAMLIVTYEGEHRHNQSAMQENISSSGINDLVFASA
Strand = AAAAAATTCGGGACTAGTAGTGGTGAAAAA; result = 15.8 % of maximum
Strand = AAAAAACGTATTGATGTCTATTTCAAAAAA; result = 14.7 % of maximum
Strand = AAAAAAATCTCACTCCTGGTCCCCATAAAA; result = 14.1 % of maximum
Strand = AAAAAAGTCGTTACACGTATGCGTGCAAAA; result = 42.1 % of maximum
Strand = AAAAAATAGTGTGATTGGTATCCAGTAAAA; result = 17.6 % of maximum
Strand = AAAAAAGTGCACGACCCATTTATATAAAAA; result = 12.4 % of maximum
Strand = AAAAAATTCTAGCTTTTAACTTTAGCAAAA; result = 14.4 % of maximum
Strand = AAAAAAGTATAACGTGTTGTTGACCGAAAA; result = 100 % of maximum

Study 3
Structure (SMILES): CC(=O)Nc1c(C(C)=O)c(=O)n(C)c2nc(-c3ccc(Cl)cc3Cl)c(-c3ccc(Cl)cc3)cc12
Read-out: cell-free assay
Method: competition with immobilised ligand
Tested at: 1 µM
Measurement: remaining binding
target = Cyclin-dependent kinase 16 (CDK16, Homo sapiens, UniProt Q00536); result = 100%
target = High affinity nerve growth factor receptor (NTRK1, Homo sapiens, UniProt P04629); result = 100%
target = Serine/threonine-protein kinase PAK 4 (PAK4, Homo sapiens, UniProt O96013); result = 100%
target = Activin receptor type-1 (ACVR1, Homo sapiens, UniProt Q04771); result = 100%
target = Cyclin-dependent kinase 8 (CDK8, Homo sapiens, UniProt P49336); result = 100%
target = Epidermal growth factor receptor (EGFR, Homo sapiens, UniProt P00533); result = 100%
target = TGF-beta receptor type-2 (TGFBR2, Homo sapiens, UniProt P37173); result = 100%
target = Proto-oncogene tyrosine-protein kinase ROS (ROS1, Homo sapiens, UniProt P08922); result = 99%
target = Ribosomal protein S6 kinase alpha-1, N-terminal kinase domain (RPS6KA1, Homo sapiens, UniProt Q15418); result = 100%
target = Mitogen-activated protein kinase 15 (MAPK15, Homo sapiens, UniProt Q8TD08); result = 100%
target = Mitogen-activated protein kinase 7 (MAPK7, Homo sapiens, UniProt Q13164); result = 100%
target = G protein-coupled receptor kinase 3 (GRK3, Homo sapiens, UniProt P35626); result = 99%
target = Mitogen-activated protein kinase kinase kinase 13 (MAP3K13, Homo sapiens, UniProt O43283); result = 100%

Study 4
Target: Serine/threonine-protein kinase A-Raf (ARAF, Homo sapiens, UniProt P10398)
Sequence of UniProt P10398 (whole entry, looked up): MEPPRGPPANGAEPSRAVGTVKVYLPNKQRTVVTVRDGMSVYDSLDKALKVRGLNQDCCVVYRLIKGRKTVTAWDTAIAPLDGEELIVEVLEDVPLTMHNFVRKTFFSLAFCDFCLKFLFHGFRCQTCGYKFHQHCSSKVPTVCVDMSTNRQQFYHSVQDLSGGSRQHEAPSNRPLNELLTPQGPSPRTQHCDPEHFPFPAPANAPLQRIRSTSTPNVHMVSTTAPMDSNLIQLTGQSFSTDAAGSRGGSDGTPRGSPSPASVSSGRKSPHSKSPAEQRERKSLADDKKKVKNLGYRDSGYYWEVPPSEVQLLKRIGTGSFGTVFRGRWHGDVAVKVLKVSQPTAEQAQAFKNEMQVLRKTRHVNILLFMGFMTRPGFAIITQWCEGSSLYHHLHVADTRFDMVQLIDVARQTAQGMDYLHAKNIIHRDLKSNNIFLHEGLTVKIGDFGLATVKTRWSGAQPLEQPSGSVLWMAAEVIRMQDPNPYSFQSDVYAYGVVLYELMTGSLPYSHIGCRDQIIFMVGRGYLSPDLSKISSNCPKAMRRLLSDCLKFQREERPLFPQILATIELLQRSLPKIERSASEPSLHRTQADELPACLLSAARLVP
Read-out: enzyme activity
Action: inhibitor
Tested at: 0.5 µM
Reference: control
Measurement: remaining activity
Compound = Cc1ccc(Nc2nccc(N(C)c3ccc4c(C)n(C)nc4c3)n2)cc1S(N)(=O)=O; result = 76.5%
Compound = COc1ccc(OC)c2c(=S)c3ccccc3[nH]c12; result = 122%
Compound = Cn1c2ccccc2c2c3c(c4c5ccccc5n(CCC#N)c4c21)CNC3=O; result = 103%
Compound = Cn1sc(=O)n(Cc2ccccc2)c1=O; result = 94.6%
Compound = OCC(O)CCON=C1C(c2c(O)[nH]c3ccccc23)=Nc2ccccc21 (stereo not drawn); result = 107%
Compound = Nc1[nH]nc2nc3ccccc3nc12; result = 119%
Compound = COc1ccc(CNC(=O)Nc2ncc([N+](=O)[O-])s2)cc1; result = 91%

For quick reference, copied from above (study 2):
Strand = AAAAAACGTATTGATGTCTATTTCAAAAAA; result = 14.7 % of maximum
Strand = AAAAAAATCTCACTCCTGGTCCCCATAAAA; result = 14.1 % of maximum
